Assay results of several laboratories.
Parts stem from different laboratories: compare values within a part only.

Series 1 — method: protein binding microarray; form: double-stranded DNA, one strand shown; matrix: in vitro; tested at: not given; reference: not given; reading: higher = stronger binding
Target: Histone acetyltransferase KAT6A, winged helix 1, GST fusion (KAT6A, Homo sapiens, UniProt Q92794, residues 1-85)
Notes: 8-mer, flanks averaged, mean of 2 arrays, mostly near background
Residues (chain): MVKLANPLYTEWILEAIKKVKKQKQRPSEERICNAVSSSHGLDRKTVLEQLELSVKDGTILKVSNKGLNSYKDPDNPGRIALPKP
The E-score of `ATCATATA` is reported as -0.13.
`ATCTTAGC` has an E-score of -0.0621.
With `ACGTTTAA` the E-score was -0.183.
With `CGAAGGCA` the E-score was -0.187.
For `CACTAGCG`, the E-score was 0.204.
`CTGTTCAC` has an E-score of -0.0799.

Series 2 — method: RNA Bind-n-Seq; form: RNA; matrix: in vitro; tested at: 365 nM; reference: no-protein control; reading: higher = stronger binding
Target: RNA binding protein fox-1 homolog 2, RRM domain, GST-SBP tag (RBFOX2, Homo sapiens, UniProt O43251-10, residues 100-194)
Notes: natural RNA segment, single round, ends assumed
Constant ends, left off below: GGGAGUUCUACAGUCCGACGAUC … UGGAAUUCUCGGGUGCCAA
`CCAUUUAAAUUUGUUCAUAGCCUACAUCACCAAGGUCUCUGUGUCAAACCUGUGGCCACUCUAUAUGCACUUUGUUUACUCUUUAUACAAAUAAAUAUACUAAAGACUUU`: “RBNS enrichment (R)” 0.456.
`ACAAAAAAGCACAAGCCCGCUGCAUGACCCGUCUCUCCUUUCUGGGACUAUUUCUGCUGCGUCCUGCACCCUCCUGGGCCCACCUCCGAUUCACAGAGGUUUCAGGGGGA`: “RBNS enrichment (R)” 1.16.
`ACUUCCUGUGGUGACAGACUCUUCCAUUUCAGACUGGUUUUAACUUAUCCCAGCUUUACAAAAACUCUUCAUGUGAAUCUUAACUUGCAAAAGGAGAAAGAUAAAAUACA` — result for “RBNS enrichment (R)”: 0.369.
For `ACACUCAGGCUAAGAAGGAGCGGGUCACCACAGACAAGAGUGGGGCCAUAUGUAGCACAGCAAUAUUCCAGAUGCUGGUGGGUAUUGCUGCUGCCCUAGAGCAAUGGCUU`, “RBNS enrichment (R)” read 1.17.
For `UAAAAAAAUUACACUGACUACUGGUGGCUUAGUACUUUAUGUUGUCUCUCACCUAAAUAGUUCCACUUUCUGCAUUAGGAGAAAACUGCUCCCCUCCCCAAGUAUUUUAG`, “RBNS enrichment (R)” read 0.65.
Under “RBNS enrichment (R)”, `ACUAUAUCCCCACCUCUGCUUGCUUUCUUUCCCUCCCCUCCAAUGAUAAAGAAAAUGAUAAAUUUUCUGUUGUGCAUUCAAUUCUUAUUUUAAAUAAGACUAAGUAUAGG` is recorded as 0.942.
For `UCCCUCAUUUUGUAUAUUUAGCCAGAUACAGAAAGCUCACAUCCUGAAGGAAACAUGACCAUUCUGAGUUUAAAAAAAAGUACAAAUUGCUUCUGAGGCACUAUUUGCCC`, “RBNS enrichment (R)” read 0.364.

Series 3 — method: RNA Bind-n-Seq; form: RNA; matrix: in vitro; tested at: not given; reference: input RNA pool; reading: higher = stronger binding
Target: RING finger protein unkempt homolog, zinc fingers 1-6, GST-SBP tag (UNK, Homo sapiens, UniProt Q9C0B0, residues 30-357)
Notes: RNA with constant flanks, human and mouse sites, ends assumed
Constant ends, left off below: GGGAGUUCUACAGUCCGACGAUC … CAACAGAGGAUUGAGCAUCA
Target sequence (chain): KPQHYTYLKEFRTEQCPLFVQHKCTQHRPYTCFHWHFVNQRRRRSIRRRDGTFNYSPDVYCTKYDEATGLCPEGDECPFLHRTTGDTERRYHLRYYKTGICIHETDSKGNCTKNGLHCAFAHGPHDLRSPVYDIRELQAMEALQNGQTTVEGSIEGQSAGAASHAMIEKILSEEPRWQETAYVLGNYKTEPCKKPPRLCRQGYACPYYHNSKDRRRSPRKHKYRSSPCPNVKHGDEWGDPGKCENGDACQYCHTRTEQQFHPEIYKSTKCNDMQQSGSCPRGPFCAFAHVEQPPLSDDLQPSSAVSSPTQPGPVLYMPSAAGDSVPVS
With `GAGAUGAACCUUAUGCAUGCGCCUCAAGUUGCAGAUGCUAUUCUAGGCAAUCAGAUGUUCACACAUUAUGACCGGGCUCAUAUUGCUCAACUGUGUGAAAAGGCUGGCCUACUGCAGCGU` the bound/input enrichment was 0.148 ratio.
For `ACCCUGGAGGAUCCCUGGACCGGCAGUGAGAGCGAUAAGUUCGUCCUUUUGGGUUAUCUUGACCAGCUGCGGAAGGAUCCAGCAUUUCUGUCUUCAGAAGCUGUGCUCCCUGACCUGACU`, the bound/input enrichment was 0.0901 ratio.
`GCCCAUGACUCCGUGGCCCAGGAGGGCCAGUGUCGGGUAGAUGACAAAGUGAAUUUCCAUUUUAUUCUGUUCAACAACGUGGACGGCCAUCUGUACGAGCUCGAUGGGCGAAUGCCCUUU` gave a bound/input enrichment of 0.185 ratio.
With `GUGGGUCAGGACCCUGUCUUGAGACAGGUGGAAGGAAAAAAUCCAGUCACAAUAUUUUCUCUAGCAACUAAUGAGAUGUGGCGAUCAGGGGAUAGUGAAGUUUACCAACUGGGUGAUGUC` the bound/input enrichment was 0.881 ratio.
With `UAACUCCCCCAUCCCACGAUUUAAAUAGGGCUCCUCGUGUACCAGUUCAAGCACUGCCCAUGGUUGUUCCACCUCAGGAGCCUGACAAACCACCUGCCAAUGUUGCCACCACUCUUCCCA` the bound/input enrichment was 0.176 ratio.
`GACCUUGCAAAAGUCCUACUGAAAAGGACAGUCCAGACUAUUGAAGCAUGUAUUGCCAAUUUUUUCAAUCAAGUCCUGGUGCUGGGCAGAUCAUCAGUCAGCGACCUGUCUGAACACGUA` gave a bound/input enrichment of 0.13 ratio.
With `UGAGCGUCGGCGCCGGGGUUCGGUGGCCUCUAGUGAGAUCUGGAGGAUCCAAGGAUUCUGUAGCUACAAUGUUGUCAAGACUUUUUCGAAUGCAUGGCCUCUUUGUGGCCUCCCAUCCCU` the bound/input enrichment was 0.275 ratio.
`GCCUCCGAGGACGGCCGCUGCAUCCGUGAGAUCCCUGACCCUGAUGGCGCCGAAUUGCUCUGCUGCACCUUCCAGCCAGUCAACAACAACCUCACUGUGGUGGGGAACGCCAAGCACAAC` has a bound/input enrichment of 0.0932 ratio.

Other studies, line by line
`PhoQ, residues 284 288 289 292 302 303 TLASMF` gave a fold induction of 2.14 (PhoP, residues 12 14 15 18 19 NMSSL (Escherichia coli, UniProt P23836); Sort-seq, item: YFP reporter; E. coli; PhoQ-PhoP variant library, with: 10 µM Mg2+; reference: high Mg2+ state, higher = stronger signaling).
